Results collected from several papers.
Every numbered part comes from another study and shows a few of its results, in no order. Values joined by “and” are separate records of one study, mostly repeats; a detail may differ.
UniProt P57078, sequence (whole entry, looked up): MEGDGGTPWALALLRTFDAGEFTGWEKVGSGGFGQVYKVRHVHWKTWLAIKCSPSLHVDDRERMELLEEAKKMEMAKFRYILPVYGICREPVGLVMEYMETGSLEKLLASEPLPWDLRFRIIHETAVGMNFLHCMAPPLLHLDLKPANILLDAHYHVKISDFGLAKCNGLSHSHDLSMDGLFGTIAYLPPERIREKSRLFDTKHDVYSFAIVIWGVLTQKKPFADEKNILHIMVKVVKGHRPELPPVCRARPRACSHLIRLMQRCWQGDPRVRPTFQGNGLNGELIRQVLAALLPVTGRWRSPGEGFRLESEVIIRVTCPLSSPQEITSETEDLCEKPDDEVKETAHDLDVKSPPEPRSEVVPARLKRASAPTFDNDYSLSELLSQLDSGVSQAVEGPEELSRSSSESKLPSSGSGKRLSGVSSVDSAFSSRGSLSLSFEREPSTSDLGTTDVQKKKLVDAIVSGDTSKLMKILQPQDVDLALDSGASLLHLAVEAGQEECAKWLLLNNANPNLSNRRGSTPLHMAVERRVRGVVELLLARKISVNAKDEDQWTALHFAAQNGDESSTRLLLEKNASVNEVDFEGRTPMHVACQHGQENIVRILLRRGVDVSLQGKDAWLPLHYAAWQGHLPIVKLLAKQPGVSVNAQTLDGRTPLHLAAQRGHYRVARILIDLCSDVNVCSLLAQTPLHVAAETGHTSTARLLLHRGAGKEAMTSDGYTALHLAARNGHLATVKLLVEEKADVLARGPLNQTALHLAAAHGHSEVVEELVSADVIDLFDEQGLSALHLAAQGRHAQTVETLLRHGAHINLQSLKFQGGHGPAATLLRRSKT
UniProt O00506, sequence (whole entry, looked up): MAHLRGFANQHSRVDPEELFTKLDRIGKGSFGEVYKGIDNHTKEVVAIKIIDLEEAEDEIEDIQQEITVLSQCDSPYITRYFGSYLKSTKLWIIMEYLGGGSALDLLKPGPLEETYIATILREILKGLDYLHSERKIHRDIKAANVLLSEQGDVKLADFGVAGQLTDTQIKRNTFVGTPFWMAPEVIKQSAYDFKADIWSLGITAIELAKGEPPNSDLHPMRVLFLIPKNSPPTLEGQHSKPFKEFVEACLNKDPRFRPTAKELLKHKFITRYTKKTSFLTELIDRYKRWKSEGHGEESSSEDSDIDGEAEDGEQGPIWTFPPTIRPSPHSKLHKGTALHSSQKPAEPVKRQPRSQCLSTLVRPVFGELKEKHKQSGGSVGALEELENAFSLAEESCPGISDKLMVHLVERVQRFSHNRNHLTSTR
UniProt Q96BR1, sequence (whole entry, looked up): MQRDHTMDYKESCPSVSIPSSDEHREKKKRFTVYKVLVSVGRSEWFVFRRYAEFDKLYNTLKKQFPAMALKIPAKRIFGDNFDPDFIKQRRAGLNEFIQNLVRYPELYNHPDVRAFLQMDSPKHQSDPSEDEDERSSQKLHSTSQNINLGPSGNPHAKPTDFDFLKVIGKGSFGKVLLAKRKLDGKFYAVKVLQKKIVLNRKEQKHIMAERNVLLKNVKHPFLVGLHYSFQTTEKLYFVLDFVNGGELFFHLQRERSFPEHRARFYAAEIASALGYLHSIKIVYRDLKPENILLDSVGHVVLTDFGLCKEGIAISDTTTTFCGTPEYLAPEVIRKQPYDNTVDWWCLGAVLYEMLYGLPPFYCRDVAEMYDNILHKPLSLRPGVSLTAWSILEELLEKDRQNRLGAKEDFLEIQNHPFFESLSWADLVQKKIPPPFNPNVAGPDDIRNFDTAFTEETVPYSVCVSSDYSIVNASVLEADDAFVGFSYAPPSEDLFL
UniProt P62344, sequence (whole entry, looked up): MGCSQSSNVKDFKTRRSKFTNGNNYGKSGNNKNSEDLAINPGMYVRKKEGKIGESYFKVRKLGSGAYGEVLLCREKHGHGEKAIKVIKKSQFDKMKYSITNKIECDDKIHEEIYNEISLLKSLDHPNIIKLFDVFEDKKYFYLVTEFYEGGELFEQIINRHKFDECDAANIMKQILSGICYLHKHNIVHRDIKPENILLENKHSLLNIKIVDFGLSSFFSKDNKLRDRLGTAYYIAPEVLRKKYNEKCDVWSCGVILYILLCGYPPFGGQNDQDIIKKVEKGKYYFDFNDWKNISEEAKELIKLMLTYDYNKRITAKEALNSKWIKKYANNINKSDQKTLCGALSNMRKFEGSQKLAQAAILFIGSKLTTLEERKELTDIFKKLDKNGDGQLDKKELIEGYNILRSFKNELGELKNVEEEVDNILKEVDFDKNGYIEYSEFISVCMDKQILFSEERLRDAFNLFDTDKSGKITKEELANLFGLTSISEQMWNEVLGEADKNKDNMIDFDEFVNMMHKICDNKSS
UniProt P45984, sequence (whole entry, looked up): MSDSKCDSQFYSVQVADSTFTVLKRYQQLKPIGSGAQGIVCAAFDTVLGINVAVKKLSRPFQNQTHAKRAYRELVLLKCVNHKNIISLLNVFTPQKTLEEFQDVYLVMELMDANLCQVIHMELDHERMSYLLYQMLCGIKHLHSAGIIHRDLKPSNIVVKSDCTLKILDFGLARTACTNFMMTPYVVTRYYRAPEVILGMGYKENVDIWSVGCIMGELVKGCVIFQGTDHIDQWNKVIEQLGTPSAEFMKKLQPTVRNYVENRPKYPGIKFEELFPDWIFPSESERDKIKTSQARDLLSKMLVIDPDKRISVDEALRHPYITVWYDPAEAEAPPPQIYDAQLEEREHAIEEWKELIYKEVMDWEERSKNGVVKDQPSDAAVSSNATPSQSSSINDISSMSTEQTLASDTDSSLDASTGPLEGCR
UniProt Q8IYT8, sequence (whole entry, looked up): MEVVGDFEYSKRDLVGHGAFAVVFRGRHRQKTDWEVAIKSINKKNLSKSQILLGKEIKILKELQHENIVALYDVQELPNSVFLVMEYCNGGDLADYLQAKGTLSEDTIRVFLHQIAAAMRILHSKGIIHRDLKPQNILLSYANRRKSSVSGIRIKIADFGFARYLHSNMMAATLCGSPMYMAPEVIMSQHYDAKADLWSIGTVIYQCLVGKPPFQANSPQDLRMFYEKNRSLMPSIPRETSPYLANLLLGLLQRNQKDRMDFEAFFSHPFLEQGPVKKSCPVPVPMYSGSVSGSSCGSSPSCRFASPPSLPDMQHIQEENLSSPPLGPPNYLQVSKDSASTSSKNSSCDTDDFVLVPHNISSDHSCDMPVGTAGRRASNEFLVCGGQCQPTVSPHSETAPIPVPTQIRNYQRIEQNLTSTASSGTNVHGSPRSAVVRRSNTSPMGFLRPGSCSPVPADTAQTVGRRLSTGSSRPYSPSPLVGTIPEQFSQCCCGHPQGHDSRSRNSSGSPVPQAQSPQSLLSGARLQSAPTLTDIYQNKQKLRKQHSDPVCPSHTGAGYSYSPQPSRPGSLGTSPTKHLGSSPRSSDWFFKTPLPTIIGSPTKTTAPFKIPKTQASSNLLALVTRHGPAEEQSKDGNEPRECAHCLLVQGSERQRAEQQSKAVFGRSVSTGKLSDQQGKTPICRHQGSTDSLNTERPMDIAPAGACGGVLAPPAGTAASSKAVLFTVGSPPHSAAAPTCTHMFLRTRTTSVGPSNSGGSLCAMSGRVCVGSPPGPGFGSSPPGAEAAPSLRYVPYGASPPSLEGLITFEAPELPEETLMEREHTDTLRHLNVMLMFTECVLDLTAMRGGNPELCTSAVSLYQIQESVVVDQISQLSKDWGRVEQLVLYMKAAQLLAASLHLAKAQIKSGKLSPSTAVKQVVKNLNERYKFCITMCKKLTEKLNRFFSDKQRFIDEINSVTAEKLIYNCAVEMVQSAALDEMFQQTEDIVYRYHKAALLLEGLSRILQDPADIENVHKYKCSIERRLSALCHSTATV
UniProt P11802, sequence (whole entry, looked up): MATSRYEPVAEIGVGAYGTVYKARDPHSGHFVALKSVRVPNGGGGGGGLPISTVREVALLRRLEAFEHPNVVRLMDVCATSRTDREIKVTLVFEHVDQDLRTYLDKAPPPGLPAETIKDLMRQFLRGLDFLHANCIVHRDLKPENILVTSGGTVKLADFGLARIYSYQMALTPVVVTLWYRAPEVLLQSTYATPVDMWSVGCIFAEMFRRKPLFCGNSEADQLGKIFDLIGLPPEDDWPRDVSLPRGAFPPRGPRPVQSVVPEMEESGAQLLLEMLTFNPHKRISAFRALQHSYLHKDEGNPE
UniProt Q96RR4, sequence (whole entry, looked up): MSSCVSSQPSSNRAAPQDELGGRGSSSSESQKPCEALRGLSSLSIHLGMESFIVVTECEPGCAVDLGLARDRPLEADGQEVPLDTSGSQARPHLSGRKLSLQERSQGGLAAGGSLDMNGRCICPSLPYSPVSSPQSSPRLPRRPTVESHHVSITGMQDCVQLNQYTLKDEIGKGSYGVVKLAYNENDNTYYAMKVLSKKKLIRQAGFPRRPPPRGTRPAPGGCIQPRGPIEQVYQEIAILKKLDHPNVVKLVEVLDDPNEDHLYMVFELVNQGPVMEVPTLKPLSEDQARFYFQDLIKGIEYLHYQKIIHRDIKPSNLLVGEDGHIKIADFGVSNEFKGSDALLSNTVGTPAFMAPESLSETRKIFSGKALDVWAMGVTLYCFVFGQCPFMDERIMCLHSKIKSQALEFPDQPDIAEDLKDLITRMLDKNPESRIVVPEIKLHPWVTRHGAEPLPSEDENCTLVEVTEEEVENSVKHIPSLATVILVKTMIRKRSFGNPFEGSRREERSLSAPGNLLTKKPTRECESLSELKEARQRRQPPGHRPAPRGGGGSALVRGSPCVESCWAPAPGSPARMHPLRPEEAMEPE

Set 1
Species: human
Matrix: microsomes or S9
Concentration: 2 µM
Time: 0.5 h
SMILES | remaining compound
CC1(C)CON(Cc2cc(-c3ccccc3)sc2Cl)C1=O | 36.5%
CCC12OCC(C)(C)N1O/C(=N/c1ccccc1)N2c1ccccc1 (stereo not shown) | 5.95%
CCCc1noc2c1C(=O)CC(c1c(C)cc(C)cc1C)C2 (stereo not shown) | 54.2%
CC(C)CCn1cnc2c(cnn2-c2ccc(Cl)cc2)c1=O | 35.8%
CCn1ccc(C(=O)Nc2cccn3ncnc23)n1 | 12.4%
CC(=O)Nc1cccc(C2CCN(CCCn3nc(S(=O)(=O)c4ccc(C)cc4)c4ccccc4c3=O)CC2)c1 | 0.277%
CS(=O)(=O)c1nc2c(n1-c1ccccc1)C(=O)C(c1ccccc1)S(=O)(=O)N2Cc1ccccc1 (stereo not shown) | 1.92%
CN(c1nccc2c(Br)csc12)C1CCN(C(=O)OC(C)(C)C)CC1 | 59.9%

Set 2
Structure (SMILES): CC(C)C[C@@H]1NC(=O)[C@@H](N(C)C(=O)[C@H](CC2CCC2)NC(=O)[C@@H]2C[C@@H](F)CN2C(=O)C2(C(F)(F)F)CC(F)(F)C2)CCCCNC(=O)C2(CC2)NC(=O)[C@H](Cc2cc(Cl)ccc2Cl)N(C)C1=O
Cell line: NCI-H446
Time: 5 days
Reference: DMSO
test | setting | cell growth
Vi-Cell counting | 41.1 nM, added: Myt1 inhibitor 1000 nM | 34.9% and 22.1%
cell counting | 4.57 nM | 78.4% and 63.5%
Vi-Cell counting | 371 nM, added: Myt1 inhibitor 1000 nM | 9.21% and 6.31%
cell counting | 3.33 µM | 21% and 23%
cell counting | 13.7 nM | 54.7% and 47.9%
cell counting | 10 µM | 14.9% and 15.6%
cell counting | 511 pM | 99% and 79.9%
Vi-Cell counting | 124 nM, added: Myt1 inhibitor 1000 nM | 18.6% and 12.5%

Set 3
SMILES: O=C(Nc1cnn(-c2csc(C(=O)NC3COC3)c2)c1)Nc1c(F)cccc1Cl
Concentration: 5 µM
target | test | how to read | remaining activity [%]
Cyclin-dependent kinase 4, with cyclin D3 (CDK4, Homo sapiens, UniProt P11802) | enzyme activity | reference: untreated control | 78.3
Serine/threonine-protein kinase ULK2 (ULK2, Homo sapiens, UniProt Q8IYT8) | enzyme activity | reference: untreated control | 90.2
Mitogen-activated protein kinase 9 (MAPK9, Homo sapiens, UniProt P45984) | enzyme activity | reference: untreated control | 21.8
Receptor-interacting serine/threonine-protein kinase 4 (RIPK4, Homo sapiens, UniProt P57078) | enzyme activity | reference: untreated control | 92.3
Serine/threonine-protein kinase Sgk3 (SGK3, Homo sapiens, UniProt Q96BR1) | enzyme activity | reference: untreated control | 86.3
Protein kinase C beta type, isoform beta-I (PRKCB, Homo sapiens, UniProt P05771) | kinase activity, kinase panel profiling | – | 100
Serine/threonine-protein kinase 25 (STK25, Homo sapiens, UniProt O00506) | enzyme activity | reference: untreated control | 94.2
Calcium/calmodulin-dependent protein kinase kinase 2 (CAMKK2, Homo sapiens, UniProt Q96RR4) | enzyme activity | reference: untreated control | 78.7

Single results of other studies
SMILES | target | test | setting | quantity | result
Cc1cc(-n2nc(Cc3cc(F)cc(C(F)(F)F)c3)nc2C)ccc1C(N)=O | Calcium-dependent protein kinase 1 (CDPK1, Plasmodium falciparum, UniProt P62344) | cell-free assay, competition with immobilised ligand | 1 µM | remaining binding | 100%

Excerpt of the above (set 2):
test | setting | cell growth
cell counting | 4.57 nM | 78.4% and 63.5%
Vi-Cell counting | 124 nM, added: Myt1 inhibitor 1000 nM | 18.6% and 12.5%
